Measured values of several laboratories.
Each numbered part is a random draw from the data of one study; scales do not carry over between parts. pIC50: −log10 of the molar value.
Sequence of UniProt Q9NRM7 (whole entry, looked up): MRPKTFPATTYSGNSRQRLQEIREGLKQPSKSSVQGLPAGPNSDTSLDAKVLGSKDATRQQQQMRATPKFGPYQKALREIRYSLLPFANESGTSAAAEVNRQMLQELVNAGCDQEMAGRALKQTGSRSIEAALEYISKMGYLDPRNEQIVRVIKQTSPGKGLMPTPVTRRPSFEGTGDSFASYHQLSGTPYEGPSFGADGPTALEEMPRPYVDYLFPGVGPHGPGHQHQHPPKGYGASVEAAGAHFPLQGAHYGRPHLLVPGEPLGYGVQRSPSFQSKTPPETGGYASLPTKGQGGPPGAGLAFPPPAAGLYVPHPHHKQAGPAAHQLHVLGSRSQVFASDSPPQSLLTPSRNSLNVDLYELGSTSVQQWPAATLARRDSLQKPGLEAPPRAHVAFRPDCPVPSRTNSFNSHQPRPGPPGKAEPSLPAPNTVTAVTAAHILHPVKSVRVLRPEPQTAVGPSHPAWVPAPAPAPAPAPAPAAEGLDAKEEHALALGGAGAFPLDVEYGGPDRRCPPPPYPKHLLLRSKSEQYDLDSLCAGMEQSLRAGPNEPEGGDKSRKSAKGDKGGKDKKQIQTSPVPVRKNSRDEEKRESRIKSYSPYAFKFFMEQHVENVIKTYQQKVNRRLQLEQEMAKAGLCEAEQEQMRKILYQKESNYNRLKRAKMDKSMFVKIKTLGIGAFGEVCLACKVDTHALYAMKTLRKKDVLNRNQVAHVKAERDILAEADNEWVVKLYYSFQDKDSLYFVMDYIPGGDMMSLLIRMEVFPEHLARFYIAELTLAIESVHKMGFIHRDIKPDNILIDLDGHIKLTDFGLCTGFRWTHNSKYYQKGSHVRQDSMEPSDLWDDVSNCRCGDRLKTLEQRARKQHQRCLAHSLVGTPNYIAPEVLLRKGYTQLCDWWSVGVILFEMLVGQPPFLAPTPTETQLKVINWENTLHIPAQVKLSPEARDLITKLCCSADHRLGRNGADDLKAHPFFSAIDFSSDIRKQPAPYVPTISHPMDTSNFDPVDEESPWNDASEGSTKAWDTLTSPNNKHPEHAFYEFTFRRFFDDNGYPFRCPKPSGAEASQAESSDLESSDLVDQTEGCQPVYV
Sequence of UniProt Q13464 (whole entry, looked up): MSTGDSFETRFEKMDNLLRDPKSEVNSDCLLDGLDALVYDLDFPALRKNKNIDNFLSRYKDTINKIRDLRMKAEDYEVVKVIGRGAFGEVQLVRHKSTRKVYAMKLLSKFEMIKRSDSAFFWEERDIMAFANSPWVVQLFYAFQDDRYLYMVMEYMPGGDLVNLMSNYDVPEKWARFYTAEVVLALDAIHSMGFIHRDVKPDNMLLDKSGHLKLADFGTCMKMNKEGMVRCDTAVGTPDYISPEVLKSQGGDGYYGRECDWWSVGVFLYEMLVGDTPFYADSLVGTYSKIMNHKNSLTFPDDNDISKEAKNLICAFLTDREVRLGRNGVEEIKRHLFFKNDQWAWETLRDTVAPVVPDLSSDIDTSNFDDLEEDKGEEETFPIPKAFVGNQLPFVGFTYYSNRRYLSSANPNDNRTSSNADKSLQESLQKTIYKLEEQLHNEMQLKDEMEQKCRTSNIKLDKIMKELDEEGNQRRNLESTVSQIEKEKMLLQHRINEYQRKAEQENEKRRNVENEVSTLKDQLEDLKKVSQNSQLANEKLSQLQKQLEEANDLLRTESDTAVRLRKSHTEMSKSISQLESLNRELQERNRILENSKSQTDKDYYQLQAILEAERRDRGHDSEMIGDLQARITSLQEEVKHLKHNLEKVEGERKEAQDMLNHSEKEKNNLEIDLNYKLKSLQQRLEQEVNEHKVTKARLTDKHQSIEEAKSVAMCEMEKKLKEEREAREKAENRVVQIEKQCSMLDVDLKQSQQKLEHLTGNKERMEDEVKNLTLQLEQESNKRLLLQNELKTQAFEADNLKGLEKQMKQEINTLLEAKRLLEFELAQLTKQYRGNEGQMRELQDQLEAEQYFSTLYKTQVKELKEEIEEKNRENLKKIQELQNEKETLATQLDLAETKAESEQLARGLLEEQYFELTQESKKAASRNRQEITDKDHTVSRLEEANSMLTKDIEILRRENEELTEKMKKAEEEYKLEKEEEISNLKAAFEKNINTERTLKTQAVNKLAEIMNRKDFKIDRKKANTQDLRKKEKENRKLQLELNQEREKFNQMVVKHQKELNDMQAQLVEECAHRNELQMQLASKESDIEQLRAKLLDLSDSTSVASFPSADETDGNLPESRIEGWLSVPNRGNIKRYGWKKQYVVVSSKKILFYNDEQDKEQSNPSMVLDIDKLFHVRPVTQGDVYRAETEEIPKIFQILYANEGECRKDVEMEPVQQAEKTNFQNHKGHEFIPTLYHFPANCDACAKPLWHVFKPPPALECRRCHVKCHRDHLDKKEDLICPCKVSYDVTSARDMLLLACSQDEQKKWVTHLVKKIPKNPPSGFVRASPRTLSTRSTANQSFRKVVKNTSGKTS
Sequence of UniProt P31749 (whole entry, looked up): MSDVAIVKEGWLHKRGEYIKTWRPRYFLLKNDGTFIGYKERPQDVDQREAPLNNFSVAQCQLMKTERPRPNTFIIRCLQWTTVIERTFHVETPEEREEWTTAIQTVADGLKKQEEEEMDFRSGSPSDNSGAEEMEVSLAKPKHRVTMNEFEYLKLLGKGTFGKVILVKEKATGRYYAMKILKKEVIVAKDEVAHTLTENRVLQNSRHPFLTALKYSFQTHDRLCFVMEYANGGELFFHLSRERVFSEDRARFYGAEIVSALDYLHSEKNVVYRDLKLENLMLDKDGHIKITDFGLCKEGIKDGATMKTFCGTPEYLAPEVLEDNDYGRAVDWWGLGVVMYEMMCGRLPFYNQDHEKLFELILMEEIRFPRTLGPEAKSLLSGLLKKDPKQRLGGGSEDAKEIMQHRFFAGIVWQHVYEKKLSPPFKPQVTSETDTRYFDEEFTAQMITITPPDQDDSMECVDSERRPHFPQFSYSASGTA
Sequence of UniProt P35968 (whole entry, looked up): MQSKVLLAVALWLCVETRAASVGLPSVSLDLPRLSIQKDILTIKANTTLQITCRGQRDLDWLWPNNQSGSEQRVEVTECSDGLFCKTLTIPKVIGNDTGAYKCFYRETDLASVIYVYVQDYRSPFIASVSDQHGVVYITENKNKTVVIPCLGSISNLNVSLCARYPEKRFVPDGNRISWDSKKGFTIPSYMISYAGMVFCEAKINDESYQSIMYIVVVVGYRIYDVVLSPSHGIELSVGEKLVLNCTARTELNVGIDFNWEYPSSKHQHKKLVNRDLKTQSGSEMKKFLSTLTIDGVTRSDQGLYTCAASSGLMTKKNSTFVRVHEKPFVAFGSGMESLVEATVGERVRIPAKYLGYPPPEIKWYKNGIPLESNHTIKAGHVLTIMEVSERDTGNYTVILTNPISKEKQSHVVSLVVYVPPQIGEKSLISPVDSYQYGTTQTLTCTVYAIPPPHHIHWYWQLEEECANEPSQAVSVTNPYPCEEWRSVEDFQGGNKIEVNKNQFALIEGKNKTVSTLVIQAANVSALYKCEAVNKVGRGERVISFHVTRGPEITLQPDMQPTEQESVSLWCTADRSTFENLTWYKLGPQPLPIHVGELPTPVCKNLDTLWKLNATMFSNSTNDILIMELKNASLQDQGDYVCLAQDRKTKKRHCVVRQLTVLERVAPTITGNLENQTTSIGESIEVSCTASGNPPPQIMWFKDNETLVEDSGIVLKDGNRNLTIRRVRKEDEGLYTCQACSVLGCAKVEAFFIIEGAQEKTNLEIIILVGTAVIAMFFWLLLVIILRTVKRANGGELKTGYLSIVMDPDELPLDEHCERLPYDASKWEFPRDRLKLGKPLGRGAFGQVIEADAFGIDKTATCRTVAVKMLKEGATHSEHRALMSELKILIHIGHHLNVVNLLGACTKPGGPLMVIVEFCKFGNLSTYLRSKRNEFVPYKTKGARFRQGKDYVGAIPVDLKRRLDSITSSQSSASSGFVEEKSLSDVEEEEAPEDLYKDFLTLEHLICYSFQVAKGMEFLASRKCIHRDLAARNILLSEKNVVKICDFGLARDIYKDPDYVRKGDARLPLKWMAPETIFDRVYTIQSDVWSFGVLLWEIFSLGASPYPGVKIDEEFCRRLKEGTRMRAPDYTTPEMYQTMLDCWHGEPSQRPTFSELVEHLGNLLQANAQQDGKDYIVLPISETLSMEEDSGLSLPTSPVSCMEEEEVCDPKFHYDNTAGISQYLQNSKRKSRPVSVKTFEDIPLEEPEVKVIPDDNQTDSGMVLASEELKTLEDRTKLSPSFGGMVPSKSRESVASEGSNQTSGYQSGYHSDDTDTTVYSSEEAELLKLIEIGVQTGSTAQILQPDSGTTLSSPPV
Sequence of UniProt P48729 (whole entry, looked up): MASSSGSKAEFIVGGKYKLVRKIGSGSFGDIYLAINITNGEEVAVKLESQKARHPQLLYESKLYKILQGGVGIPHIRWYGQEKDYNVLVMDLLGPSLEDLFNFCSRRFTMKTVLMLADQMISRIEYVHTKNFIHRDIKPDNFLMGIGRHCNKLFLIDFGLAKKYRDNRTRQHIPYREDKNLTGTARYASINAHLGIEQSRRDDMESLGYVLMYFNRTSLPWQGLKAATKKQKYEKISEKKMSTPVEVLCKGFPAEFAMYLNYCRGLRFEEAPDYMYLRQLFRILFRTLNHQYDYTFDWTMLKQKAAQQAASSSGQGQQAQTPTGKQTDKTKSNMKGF

Series 1 — technique: phase 2a clinical trial
Structure (SMILES): CC(C)n1cnc(-c2ccc(F)cc2)c1-c1ncc(C(=O)Nc2ccc(N3CCN(C)CC3)cc2)[nH]1
Species: patients with idiopathic pulmonary fibrosis
measured: electrocardiogram QT prolonged; 60 mg once daily, Grade 1 — “patients with treatment-emergent adverse events”: 0%.
It gave 0% for “patients with treatment-emergent adverse events” (measured: investigations (SOC); 60 mg once daily, Grade 5).
measured: idiopathic pulmonary fibrosis; dose not given, Grade 5, all drug arms — “patients with treatment-emergent adverse events”: 0%.
The “patients with treatment-emergent adverse events” was 0% (measured: C-reactive protein increased; 60 mg once daily, Grade 5).
It gave 0% for “patients with treatment-emergent adverse events” (measured: protein urine present; dose not given, Grade 4, all drug arms total).
For measured: hepatic function abnormal; 60 mg once daily, Grade 4: “patients with treatment-emergent adverse events” read 0%.
The “patients with treatment-emergent adverse events” was 0% (measured: investigations (SOC); 30 mg once daily, Grade 4).

Series 2 — read-out: enzyme activity; action: inhibitor; tested at: 0.5 µM; reference: control
SMILES: CCCNC(=O)Nc1ccc(Oc2ncnc3cc(OC)c(OC)cc23)cc1Cl
For MAPK14 (Homo sapiens, UniProt Q16539): remaining activity read 122%.
RPS6KA4 (Homo sapiens, UniProt O75676) — remaining activity: 98.5%.
It gave 99.1% for remaining activity (CAMK4 (Homo sapiens, UniProt Q16566)).
NEK3 (Homo sapiens, UniProt P51956) — remaining activity: 93.8%.
The remaining activity was 99.7% (ROCK1 (Homo sapiens, UniProt Q13464)).
The remaining activity was 101% (TXK (Homo sapiens, UniProt P42681)).
The remaining activity was 95% (PLK3 (Homo sapiens, UniProt Q9H4B4)).
TLK2 (Homo sapiens, UniProt Q86UE8) — remaining activity: 99.5%.
The remaining activity was 87.4% (CDC42BPB (Homo sapiens, UniProt Q9Y5S2)).
It gave 89.7% for remaining activity (AKT2 (Homo sapiens, UniProt P31751)).
For MARK2 (Homo sapiens, UniProt Q7KZI7): remaining activity read 96.2%.
The remaining activity was 99.2% (MAP2K1 (Homo sapiens, UniProt Q02750)).
It gave 19.7% for remaining activity (KDR (Homo sapiens, UniProt P35968)).
It gave 96.4% for remaining activity (DCLK2 (Homo sapiens, UniProt Q8N568)).

Series 3 — action: antagonist
Target: Beta-1 adrenergic receptor (ADRB1, Homo sapiens, UniProt P08588)
Sequence of UniProt P08588 (whole entry, looked up): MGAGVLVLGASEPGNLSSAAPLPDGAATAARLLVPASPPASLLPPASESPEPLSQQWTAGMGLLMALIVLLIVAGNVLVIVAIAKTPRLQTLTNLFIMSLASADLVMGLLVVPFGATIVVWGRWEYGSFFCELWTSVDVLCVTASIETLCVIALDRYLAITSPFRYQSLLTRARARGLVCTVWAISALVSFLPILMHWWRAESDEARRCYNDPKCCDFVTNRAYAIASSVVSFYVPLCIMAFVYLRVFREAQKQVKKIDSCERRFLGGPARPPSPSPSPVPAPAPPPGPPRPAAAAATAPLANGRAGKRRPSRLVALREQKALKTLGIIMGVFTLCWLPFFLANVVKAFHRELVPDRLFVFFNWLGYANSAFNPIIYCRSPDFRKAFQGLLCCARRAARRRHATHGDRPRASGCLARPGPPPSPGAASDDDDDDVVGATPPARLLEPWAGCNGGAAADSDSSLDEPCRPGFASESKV
For Cc1nc(CN2CCOCC2C2CCCC2O)nc2ccccc12 (stereo not drawn), the pIC50 was no more than 4.00.
The pIC50 of c1cc(-c2cc3c(ccn3Cc3ccncc3)c(N3CCOCC3)n2)cc(N2CCOCC2)c1 is reported as no more than 4.00.
CN(CC(O)COc1cccc(CNCCOc2ccccc2)c1)C1CCCCC1 (stereo not drawn) gave a pIC50 of no more than 4.00.
The pIC50 of Cc1cc(C(C)Nc2ccccc2)c2nc(N3CCOCC3)cc(=O)n2c1 (stereo not drawn) is reported as no more than 4.00.
For NCCCN(CCCCNCCCNC(=O)CCc1ccc(O)c(O)c1)C(=O)CCc1ccc(O)c(O)c1, the pIC50 was no more than 4.00.
O=C(Nc1ccc([C@@H](O)[C@H]2COCC(=O)N2CCCc2ccccc2)cc1)c1ccco1 gave a pIC50 of no more than 4.00.

Series 4 — read-out: cell-free assay; technique: competition with immobilised ligand; tested at: 1 µM
Compound: Cc1c(NC(=O)c2cc(C(N)=O)nc3cc(F)ccc23)c(C(F)(F)F)nn1Cc1ccc(C(C)(C)C)cc1
For PIK3CA (Homo sapiens, UniProt P42336, H1047Y): remaining binding read 89%.
For Tyrosine-protein kinase ABL1, non-phosphorylated (ABL1, Homo sapiens, UniProt P00519, H396P): remaining binding read 100%.
It gave 100% for remaining binding (SBK3 (Homo sapiens, UniProt P0C264)).
AKT1 (Homo sapiens, UniProt P31749) — remaining binding: 93%.
The remaining binding was 94% (CSNK1A1 (Homo sapiens, UniProt P48729)).
For LATS2 (Homo sapiens, UniProt Q9NRM7): remaining binding read 84%.

Excerpt of the above (series 2):
The remaining activity was 99.7% (ROCK1 (Homo sapiens, UniProt Q13464)).
The remaining activity was 101% (TXK (Homo sapiens, UniProt P42681)).
It gave 99.1% for remaining activity (CAMK4 (Homo sapiens, UniProt Q16566)).
